Literature values, collected from citations in different studies.
Protocols differ between the studies behind these lines. ± marks the error that the study gave. Values after ≈ are worked out from the molar mass of the structure shown.
Chain of UniProt Q9NY57 (whole entry, looked up): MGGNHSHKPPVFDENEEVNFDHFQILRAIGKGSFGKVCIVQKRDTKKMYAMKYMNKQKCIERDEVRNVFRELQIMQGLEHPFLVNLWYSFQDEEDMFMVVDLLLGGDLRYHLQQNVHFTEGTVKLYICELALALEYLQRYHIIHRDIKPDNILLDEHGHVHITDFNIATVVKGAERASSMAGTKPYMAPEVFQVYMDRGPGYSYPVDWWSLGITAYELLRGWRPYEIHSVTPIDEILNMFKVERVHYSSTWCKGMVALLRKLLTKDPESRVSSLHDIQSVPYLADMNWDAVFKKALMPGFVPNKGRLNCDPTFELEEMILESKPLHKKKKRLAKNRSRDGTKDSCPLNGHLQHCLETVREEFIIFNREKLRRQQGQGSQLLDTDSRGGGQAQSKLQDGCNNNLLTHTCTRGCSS

CN(C)C/C=C/C(=O)Nc1cc2c(Nc3ccc(F)c(Cl)c3)ncnc2cc1O[C@H]1CCOC1 — diarrhoea incidence (human; concentration not given, clinical): 96%
C[C@H]1COCCN1c1nc(-c2cnc(N)cc2C(F)F)nc(N2CCOCC2)n1 — GI50 (CCRF-CEM): 160 nM
C#Cc1cccc(Nc2ncnc3cc4c(cc23)OCCOCCOCCO4)c1 — solubility (water): < 1000 µg/mL
CN(C)C(=N)N=C(N)N — blood-to-plasma ratio (healthy human): 1
CC(C)NCC(O)COc1cccc2ccccc12 (stereo not shown) — plasma clearance (human; average of reported values): 12.3 mL/min/kg
CS(=O)(=O)OCCCCOS(C)(=O)=O — solubility (water): < 1000 µg/mL
Cc1nc2n(c(=O)c1CCN1CCC(c3noc4cc(F)ccc34)CC1)CCCC2 — free Cmax (human): 2.68 nM
Nc1nc(=O)n([C@@H]2CS[C@H](CO)O2)cc1F — bioavailability (monkey; 80 mg/kg): 58%
CCCN(CCC)CCc1cccc2c1CC(=O)N2 — free Cmax (plasma): 106 nM
Cn1c(=O)c2c(ncn2C)n(C)c1=O — volume of distribution (human; dose not given): 0.6 L/kg
C=CC(=O)NC1CCN(c2ncc3ncnc(Nc4ccc(Oc5ccc6c(c5)ncn6C)c(C)c4)c3n2)CC1 — diarrhoea incidence (patients, NSCLC, HER2-mutant, previously treated; 120 mg once daily, treatment-related grade ≥3): 1%
Cc1ccc(NC(=O)c2ccc(CN3CCN(C)CC3)cc2)cc1Nc1nccc(-c2cncc(-c3oncc3C)c2)n1 — AUC(0-inf) (mouse; 50 mg/kg/day, steady state): 19600 ng·h/mL
CC(=O)Nc1nnc(S(N)(=O)=O)s1 — aqueous solubility: 3.2 mM (≈ 711 µg/mL)
Cc1nn(C)cc1S(=O)(=O)NC(=O)c1ccc(-n2ccc(OCC(C)(C)C(F)(F)F)n2)nc1N1C[C@@H](C)CC1(C)C — fraction unbound (human reference individuals, plasma): 0.007
N#CCNC(=O)c1ccc(-c2ccnc(Nc3ccc(N4CCOCC4)cc3)n2)cc1 — radioactivity recovered (human; oral, single dose, 14C-labelled): ~97%
Cc1nc(NC(=O)N2CCC[C@H]2C(N)=O)sc1-c1ccnc(C(C)(C)C(F)(F)F)c1 — dose excreted (human, urine; oral, 400 mg, radiolabelled, fasted; reference: dose): 14%
C[Si](C)(C)O[Si](C)(C)O[Si](C)(C)C — log KAW (25 °C): 2.52
CCc1cc2c(cc1CC)CC(NC[C@H](O)c1ccc(O)c3[nH]c(=O)ccc13)C2 — systemic clearance (human): 5 mL/min/kg
CC(C)NC(=O)COc1cccc(-c2nc(Nc3ccc4[nH]ncc4c3)c3ccccc3n2)c1 — absolute bioavailability (human; oral, 200 mg): 64%
CCN1CCN(Cc2ccc(Nc3ncc(F)c(-c4cc(F)c5nc(C)n(C(C)C)c5c4)n3)nc2)CC1 — Tmax (rat; oral, single radiolabelled dose): 6.7 to 8 h
CCN1CCN(Cc2ccc(Nc3ncc(F)c(-c4cc(F)c5nc(C)n(C(C)C)c5c4)n3)nc2)CC1 — Tmax (human; 150 mg, single dose, tablet): 5.95 h
CN1CCC[C@@H]1CCO[C@](C)(c1ccccc1)c1ccc(Cl)cc1 — free Cmax (human): 0.15 nM
Nc1nc(NC2CC2)c2ncn([C@H]3C=C[C@@H](CO)C3)c2n1 — oral bioavailability (mouse; dose not given): > 76%
CC(=O)C(C)n1ncn(-c2ccc(N3CCN(c4ccc(OC[C@H]5CO[C@](Cn6cncn6)(c6ccc(Cl)cc6Cl)O5)cc4)CC3)cc2)c1=O (stereo partly shown) — pKa (basic): 3.7
Nc1cc(C(F)(F)F)c(-c2nc(N3CCOCC3)nc(N3CCOCC3)n2)cn1 — remaining activity (STK32B (Homo sapiens, UniProt Q9NY57); enzyme activity; 10 µM; reference: untreated): 76%
CN(C)C(=O)c1cc2cnc(Nc3ccc(N4CCNCC4)cn3)nc2n1C1CCCC1 — adverse event incidence (item: neutropenia; advanced solid tumour or lymphoma patients; dose not given, 3 weeks on 1 week off, any grade; reference: patients): 35.1%
Cn1c(Cn2ccc(C(F)(F)F)c(Oc3cc(Cl)cc(C#N)c3)c2=O)n[nH]c1=O — exposure reduction (human; dose not given, moderate induction, together with: efavirenz): 50 to 60%
Cc1c(O)cccc1C(=O)N[C@@H](CSc1ccccc1)[C@H](O)CN1C[C@H]2CCCC[C@H]2C[C@H]1C(=O)NC(C)(C)C — Cmax (plasma; concentration not given, total, steady state): 5000 nM
CNC(=O)c1ccc(N2C(=S)N(c3ccc(C#N)c(C(F)(F)F)c3)C(=O)C2(C)C)cc1F — adverse event incidence (item: arthralgias; post-docetaxel patients; dose not given, AFFIRM trial): 21%
Cn1cncc1-c1c(F)cncc1NC(=O)c1c(N)nn2cc(F)cnc12 — grade ≥3 anaemia incidence (patients with advanced solid tumours; 180 mg once daily, first treatment cycle): 73%
COc1cc2nc(N(C)CCCNC(=O)C3CCCO3)nc(N)c2cc1OC (stereo not shown) — solubility (water): < 1000 µg/mL
COC(=O)N[C@@H](C)CNc1nccc(-c2cn(C(C)C)nc2-c2cc(Cl)cc(NS(C)(=O)=O)c2F)n1 — unchanged drug excreted (human, feces; dose not given): 5%
CC[C@H](C)[C@H](NC(=O)[C@H](Cc1ccccc1)NC(=O)[C@H](CCC(=O)O)NC(=O)[C@H](CCCCNC(=O)COCCOCCNC(=O)COCCOCCNC(=O)CC[C@H](NC(=O)CCCCCCCCCCCCCCCCC(=O)O)C(=O)O)NC(=O)[C@H](C)NC(=O)[C@H](C)NC(=O)[C@H](CCC(N)=O)NC(=O)CNC(=O)[C@H](CCC(=O)O)NC(=O)[C@H](CC(C)C)NC(=O)[C@H](Cc1ccc(O)cc1)NC(=O)[C@H](CO)NC(=O)[C@H](CO)NC(=O)[C@@H](NC(=O)[C@H](CC(=O)O)NC(=O)[C@H](CO)NC(=O)[C@@H](NC(=O)[C@H](Cc1ccccc1)NC(=O)[C@@H](NC(=O)CNC(=O)[C@H](CCC(=O)O)NC(=O)C(C)(C)NC(=O)[C@@H](N)Cc1cnc[nH]1)[C@@H](C)O)[C@@H](C)O)C(C)C)C(=O)N[C@@H](C)C(=O)N[C@@H](Cc1c[nH]c2ccccc12)C(=O)N[C@@H](CC(C)C)C(=O)N[C@H](C(=O)N[C@@H](CCCNC(=N)N)C(=O)NCC(=O)N[C@@H](CCCNC(=N)N)C(=O)NCC(=O)O)C(C)C — peripheral volume of distribution (human reference subject; dose not given, body weight 85 kg, population PK model): 4.1 L
O=C(CCCCCCC(=O)Nc1ccccc1)NO — solubility (water): < 1000 µg/mL
Cc1cc(C[C@@H](NC(=O)N2CCC(c3cc4ccccc4[nH]c3=O)CC2)C(=O)N2CCN(C3CCN(C)CC3)CC2)cc2cn[nH]c12 — effective half-life (intranasal, 10 mg): 6.55 h
CCOc1ccc(-c2nc3ccc(-c4nc5ccc(N6CCN(C)CC6)cc5[nH]4)cc3[nH]2)cc1 — fluorescence quantum yield (PBS; 2 µM, together with: 30 µM hairpin DNA): 0.823 ± 0.004
N#CCNC(=O)c1ccc(-c2ccnc(Nc3ccc(N4CCOCC4)cc3)n2)cc1 — AUC(0-inf) decrease (severe renal impairment; dose not given): 16%
Cc1cc(-c2nccc3c2ccn3CC(=O)Nc2ccc(-c3cnccn3)cn2)ccn1 — AUC(0-24 h), total (rat; 60 mg/kg/day, 1 month, repeat dosing): 186 µM·h
C=CC(=O)N1CCC([C@@H]2CCNc3c(C(N)=O)c(-c4ccc(Oc5ccccc5)cc4)nn32)CC1 — AUC(0-8) (human patients, plasma; oral, 160 mg twice daily, day 8): 1200 ± 474 ng·h/mL
CC(C)n1c(Nc2cccnc2)nc2cnc(Nc3ccc(N4CCN(C)CC4)cc3)nc21 — accumulation ratio of AUC (human relapsed or refractory AML; 20 to 310 mg/day, multiple doses): 0.8
CN[C@@H](C)C(=O)N[C@H]1CN(S(=O)(=O)c2cccc(S(=O)(=O)N3CC[C@H]4CC[C@@H](C(=O)NC(c5ccccc5)c5ccccc5)N4C(=O)[C@@H](NC(=O)[C@H](C)NC)C3)c2)CC[C@H]2CC[C@@H](C(=O)NC(c3ccccc3)c3ccccc3)N2C1=O — grade ≥3 ALT elevation (Chinese advanced solid tumour patients; dose not given, treatment-related adverse events): 3.6%
N#C[C@@]1(c2ccc3c(N)ncnn23)O[C@H](CO)[C@@H](O)[C@H]1O — plasma concentration (dog, plasma; intravenous, 2 mg/kg, 1 h, solution): 1350 ng/mL
O=C1C[C@@H](c2ccc(O)cc2)Oc2cc(O)cc(O)c21 — Cmax (plasma; concentration not given, total, steady state): 7390 nM
N[C@@H](CC(=O)N1CCn2c(nnc2C(F)(F)F)C1)Cc1cc(F)c(F)cc1F — crossover pressure (supercritical CO2): 160 to 180 bar
CC1(C)S[C@@H]2[C@H](NC(=O)[C@H](N)c3ccccc3)C(=O)N2[C@H]1C(=O)O — MIC (Klebsiella pneumoniae; clinical isolate RKI-No_138/16): > 16 µg/mL
COCCc1ccc(OCC(O)CNC(C)C)cc1 (stereo not shown) — AUC(0-24 h) (human fasted; 100 mg multiple doses, day 5, mean): 533 ng·h/mL
CNC(=O)c1cc(Oc2ccc(NC(=O)Nc3ccc(Cl)c(C(F)(F)F)c3)cc2)ccn1 — crossover pressure (supercritical CO2): 140 to 160 bar
CC(C)(C)c1cc(C(C)(C)C)c(NC(=O)c2c[nH]c3ccccc3c2=O)cc1O — solubility (FaSSIF; literature value): 53 µg/mL (≈ 135 µM)
Nc1nc(=O)n([C@@H]2C=C[C@H](CO)O2)cc1F — oral bioavailability (human; 5 mg): 32%
CCN(CC)CCNC(=O)c1c(C)[nH]c(/C=C2\C(=O)Nc3ccc(F)cc32)c1C — free Cmax (human): 13 nM
CNC(C)C1CCC(N)C(OC2C(N)CC(N)C(OC3OCC(C)(O)C(NC)C3O)C2O)O1 (stereo not shown) — MIC (Klebsiella pneumoniae; clinical isolate RKI-No_393/16): ≤ 0.5 µg/mL
CNCc1cc(-c2ccccc2F)n(S(=O)(=O)c2cccnc2)c1 — Tmax (human, plasma; 30 mg multiple dose, observed clinical data): 1.5 h

Some of these lines once more:
CC(=O)C(C)n1ncn(-c2ccc(N3CCN(c4ccc(OC[C@H]5CO[C@](Cn6cncn6)(c6ccc(Cl)cc6Cl)O5)cc4)CC3)cc2)c1=O (stereo partly shown) — pKa (basic): 3.7
CC(C)NC(=O)COc1cccc(-c2nc(Nc3ccc4[nH]ncc4c3)c3ccccc3n2)c1 — absolute bioavailability (human; oral, 200 mg): 64%
CC(C)n1c(Nc2cccnc2)nc2cnc(Nc3ccc(N4CCN(C)CC4)cc3)nc21 — accumulation ratio of AUC (human relapsed or refractory AML; 20 to 310 mg/day, multiple doses): 0.8
Cn1c(=O)c2c(ncn2C)n(C)c1=O — volume of distribution (human; dose not given): 0.6 L/kg
CNC(=O)c1cc(Oc2ccc(NC(=O)Nc3ccc(Cl)c(C(F)(F)F)c3)cc2)ccn1 — crossover pressure (supercritical CO2): 140 to 160 bar
Cn1c(Cn2ccc(C(F)(F)F)c(Oc3cc(Cl)cc(C#N)c3)c2=O)n[nH]c1=O — exposure reduction (human; dose not given, moderate induction, together with: efavirenz): 50 to 60%
N#CCNC(=O)c1ccc(-c2ccnc(Nc3ccc(N4CCOCC4)cc3)n2)cc1 — radioactivity recovered (human; oral, single dose, 14C-labelled): ~97%
